# Assay results of several laboratories.
# Compare with care: the assays were run in different laboratories. ± gives the spread as reported.
SMILES,assay,test system,conditions,scale,quantity,result
CCC(C)C(=O)OC1C2C3(C)CCC(OC4CC(OC)C(OC5OC(C)C(O)C(OC)C5O)C(C)O4)CC3CCC23OC32CCC(C(C)=O)C2(C)C1OC(C)=O (centres unmarked),,Caco-2,10 µM,,Papp B→A,1.53 ×10⁻⁶ cm/s
Cc1ccc(/C=C/C(=O)O)cc1-c1cc2c(cc1C)C(C)(C)CCC2(C)C,,"Sprague-Dawley rat, male","oral, 100 mg/kg, 1 h, sesame oil vehicle",,blood cholesterol,100 ± 16.1 mg/dL
c1ccc(C2(CCNC3CCC4(SCCS4)c4ccccc43)CCOC3(CCCC3)C2)nc1 (centres unmarked),,rat plasma,,,unbound fraction,0.0055
CC(C)[C@H]1NC(=O)C[C@H]2/C=C/CCSSC[C@@H](NC1=O)C(=O)N[C@H](Cc1cccc3ccccc13)C(=O)NCC(=O)O2,,"nude mouse, blood","intraperitoneal, 4 mg/kg",,AUC(0-inf),16.3 ng·h/mL
CC(=CCC(O)C(C)=Cc1csc(C)n1)CC=CC(C)C(O)C(C)C(=O)C(C)(C)C(O)CC(=O)O (centres unmarked),,"human, plasma","intravenous infusion, 20.0 mg/m2 KOS-1584, 3 h infusion, cycle 1",,half-life,1620 ± 596 min
O=c1c(Br)c2oc3c(CN(Cc4ccccn4)Cc4ccccn4)c(O)ccc3nc-2c2ccccc12,,aqueous buffer,"pH 7.0, Zn2+-saturated",,excitation maximum,535 nm
COc1ccc(C)cc1NC(=O)OC1CC2CCCC(C1)N2Cc1ccc(CC[18F])cc1 (centres unmarked),,"BALB/c mice EMT6 tumour, lung","dose not given, 2 h",baseline: initial activity,activity reduction,95%
CC[C@H](C)[C@H](NC(=O)[C@H](CCCCN)NC(=O)[C@H](Cc1ccccc1)NC(=O)[C@H]1CCC[C@@H]1NC(=O)[C@@H](N)CCCCN)C(=O)N[C@@H](C)CC(=O)N[C@@H](CCCCN)C(=O)N[C@@H](CCCCN)C(=O)N[C@H]1CCC[C@@H]1C(=O)N[C@H](C(=O)N[C@@H](CCCCN)C(=O)N[C@@H](CCCNC(=N)N)C(=O)N[C@H](CC(N)=O)Cc1ccccc1)C(C)C,RP-HPLC C18,,hydrophobicity,,retention time,13.33 ± 0.04 min
CC(=O)CCC1C(=O)NC(C(C)C)C(=O)NC(Cc2cccc(O)c2)C(=O)N2CCCC(N2)C(=O)OC(C(C)=CC=CC(=O)N2CCCCO2)CC=CC=CC(O)C(C)C1O (centres unmarked),dialysis,human plasma,"1 µM, 5 h, 37 °C",,unbound fraction,0.28
CC[C@H](C)[C@H](NC(=O)[C@H](CCCCN)NC(=O)CNC(=O)[C@H](CC(C)C)NC(=O)[C@@H](NC(=O)[C@H](C)NC(=O)[C@H](CCCCN)NC(=O)CNC(=O)[C@H](C)NC(=O)CNC(=O)[C@H](CCCCN)NC(=O)[C@H](CCSC)NC(=O)[C@H](CCCCN)NC(=O)[C@@H](NC(=O)[C@H](Cc1c[nH]c2ccccc12)NC(=O)[C@H](CC(C)C)NC(=O)[C@H](CCCCN)NC(=O)[C@H](CCCCN)NC(=O)[C@H](CC(C)C)NC(=O)[C@@H](N)CC(C)C)[C@@H](C)O)C(C)C)C(=O)N[C@@H](CCCCN)C(=O)NCC(=O)N[C@@H](CC(C)C)C(=O)N[C@@H](CC(C)C)C(=O)O,acrylamide quenching,"DOPC vesicles, 250 µM lipid","2 µM, together with: acrylamide",,Stern-Volmer constant,1.44 ± 0.13 M⁻¹
COc1cc(NC(=O)C(=O)c2c(C)n(Cc3ccc(Cl)cc3)c3ccc(C)cc23)ccn1,,"cynomolgus monkey, male, plasma","intravenous, 1 mg/kg",,AUC(0-last),1570 ng·h/mL
CC(C)C[C@@H](NC(=O)[C@@H](CCCNC(=N)N)NC(=O)[C@@H](Cc1c[nH]cn1)NC(=O)[C@@H](Cc1c[nH]c2ccccc12)NC(=O)[C@@H](Cc1c[nH]cn1)NC(=O)[C@@H](Cc1ccccc1)NC(=O)[C@H](NC(=O)[C@@H](Cc1ccc(O)cc1)NC(=O)CNC(=O)CNC(=O)CCOCCOCCOCCNC(=O)CN1CCN(CC(=O)O)CCN(CC(=O)O)CC1)[C@H](C)O)C(=O)N[C@H](CC(N)=O)C(=O)N1CCC[C@@H]1C(=O)O [gallium-68 labelled],,male C57BL/6 mice,"intravenous, 1.85 MBq, 60 min, together with: antibody blocking",baseline: tumour over muscle,tumour-to-tissue ratio,8.06 ± 1.9
CC[C@H](C)C(=O)N1CCC(NC(=O)Nc2ccc(OC(F)(F)F)c(F)c2)CC1,,healthy volunteers,"oral, 2 mg single dose",,subjects with UTI TEAE,0%
C/C=C/C=C/C/C=C/CCCCCCCc1cccc(O)c1O,,"female Kunming mice, tumour-bearing, spleen","intravenous, 10 mg/kg, 0.083 h",,tissue concentration,13300 ± 1650 ng/g
CSCC[C@H](NC(=O)CNC(=O)[C@H](CC(=O)O)NC(=O)[C@@H](NC(=O)[C@@H](NC(=O)[C@@H](NC(=O)CNC(=O)[C@H](CCC(N)=O)NC(=O)[C@H](CCSC)NC(=O)[C@H](CC(=O)O)NC(=O)[C@H](C)NC(=O)[C@H](C)NC(=O)[C@@H](NC(=O)[C@H](CO)NC(=O)[C@@H](N)CC(C)C)[C@@H](C)O)C(C)C)C(C)C)[C@@H](C)O)C(=O)N[C@@H](C)C(=O)N[C@@H](CO)C(=O)NCC(=O)N[C@@H](CC(C)C)C(=O)N[C@@H](CC(=O)O)C(=O)N[C@@H](CCCCN)C(=O)N[C@@H](CC(=O)O)C(=O)N[C@@H](Cc1ccc(O)cc1)C(=O)N[C@@H](CC(C)C)C(=O)N[C@@H](CCCCN)C(=O)N1CCC[C@H]1C(=O)N[C@@H](CC(=O)O)C(=O)N[C@@H](CC(=O)O)C(=O)O,,"human patients, serum","intravenous infusion, 2 mg/kg",,distribution half-life,0.84 min
COCC(=O)NCCSc1c(-c2ccc(Br)cc2)[nH]c2ccccc12,,rat,,,Vd,1.6 L/kg
CSCC[C@@H]1NC(=O)[C@@H]2CSSC[C@H](NC(=O)[C@H](CO)NC(=O)[C@H](C)N)C(=O)N[C@@H](CCCNC(=N)N)C(=O)N[C@@H]([C@@H](C)O)C(=O)N3CCC[C@H]3C(=O)N[C@@H](CCCCN)C(=O)N[C@@H](CC(=O)O)C(=O)N[C@H]3CSSC[C@H](NC(=O)[C@H](CCCCN)NC(=O)[C@H](CCCNC(=N)N)NC(=O)[C@H](CC(N)=O)NC1=O)C(=O)N[C@@H](CCCCN)C(=O)N[C@H]1CSSC[C@H](NC(=O)[C@@H]4CCCN4C(=O)[C@H](CC(=O)O)NC(=O)[C@H](C)NC3=O)C(=O)N[C@@H](C)C(=O)N[C@@H](CCCCN)C(=O)N[C@@H](CCC(=O)O)C(=O)N[C@@H]([C@@H](C)O)C(=O)NCC(=O)N[C@@H](CSSC[C@@H](C(N)=O)NC(=O)[C@H](CCCNC(=N)N)NC(=O)[C@H](CC(N)=O)NC1=O)C(=O)N1CCC[C@H]1C(=O)N[C@@H](Cc1ccc(O)cc1)C(=O)NCC(=O)N[C@@H](CCCCN)C(=O)N2,,"DA rat, pristane-induced arthritis, serum","subcutaneous, single 0.1 mg/kg at onset, end of 21-day trial",,gamma-glutamyl transferase,1.2 U/L
CC(C)[C@@H]1NC(=O)[C@H](Cc2ccccc2)NC(=O)[C@H](Cc2ccc(O)cc2)NC(=O)CCSSC[C@@H](C(=O)N2CCC[C@H]2C(=O)N[C@H](CCCNC(=N)N)C(=O)NCC(N)=O)NC(=O)[C@H](CCC(N)=O)NC1=O,,"Wistar rat, blood","intravenous, 10 µg/kg single dose, 72 h",,total protein,6.7 ± 0.6 g/dL
CCCCCCCC(=O)OC[C@H](NC(=O)[C@H](CO)NC(=O)CN)C(=O)N[C@@H](Cc1ccccc1)C(=O)N[C@@H](CC(C)C)C(=O)N[C@@H](CO)C(=O)N1CCC[C@H]1C(=O)N[C@@H](CCC(=O)O)C(=O)N[C@@H](Cc1cnc[nH]1)C(=O)N[C@@H](CCC(N)=O)C(=O)N[C@@H](CCCNC(=N)N)C(=O)N[C@H](C(=O)N[C@@H](CCC(N)=O)C(=O)N[C@@H](CCC(N)=O)C(=O)N[C@@H](CCCNC(=N)N)C(=O)N[C@@H](CCCCN)C(=O)N[C@@H](CCC(=O)O)C(=O)N[C@@H](CO)C(=O)N[C@@H](CCCCN)C(=O)N[C@@H](CCCCN)C(=O)N1CCC[C@H]1C(=O)N1CCC[C@H]1C(=O)N[C@@H](C)C(=O)N[C@@H](CCCCN)C(=O)N[C@@H](CC(C)C)C(=O)N[C@@H](CCC(N)=O)C(=O)N1CCC[C@H]1C(=O)N[C@@H](CCCNC(=N)N)C(=O)O)C(C)C,ELISA,"healthy humans, both sexes, plasma","intravenous infusion, 1 µg/kg/h, 65 min",,clearance,7.66 ± 2.36 mL/min/kg
CCN(Cc1ccccc1)C(=O)CCc1nc(CN2CCN(C(=O)Cc3ccc(OC)c(OC)c3)CC2)no1,,"rat, liver","intravenous, 1 mg/kg, 15 min, single dose",,concentration,24 ng/g
CN[C@](C)(C[18F])C(=O)O,,"mouse, pancreas","1 h, tumour-bearing",,tracer uptake,32 %ID/g
O=C(CN1CCN(c2cc3c(cc2F)c(=O)c(C(=O)O)cn3C2CC2)CC1)Nc1ccc(Cl)cc1,,"BALB/c mouse, female","intravenous, 3.75 mg/kg",,distribution half-life,19 min
COc1cc2ccnc(Cc3ccc(O[11CH3])c(OC)c3)c2cc1OC,,"Sprague-Dawley rat, cerebellum","i.v., 30 min",,brain uptake,0.045 %ID/g

# Repeated from above:
SMILES,assay,test system,conditions,scale,quantity,result
CC[C@H](C)C(=O)N1CCC(NC(=O)Nc2ccc(OC(F)(F)F)c(F)c2)CC1,,healthy volunteers,"oral, 2 mg single dose",,subjects with UTI TEAE,0%
C/C=C/C=C/C/C=C/CCCCCCCc1cccc(O)c1O,,"female Kunming mice, tumour-bearing, spleen","intravenous, 10 mg/kg, 0.083 h",,tissue concentration,13300 ± 1650 ng/g
CSCC[C@H](NC(=O)CNC(=O)[C@H](CC(=O)O)NC(=O)[C@@H](NC(=O)[C@@H](NC(=O)[C@@H](NC(=O)CNC(=O)[C@H](CCC(N)=O)NC(=O)[C@H](CCSC)NC(=O)[C@H](CC(=O)O)NC(=O)[C@H](C)NC(=O)[C@H](C)NC(=O)[C@@H](NC(=O)[C@H](CO)NC(=O)[C@@H](N)CC(C)C)[C@@H](C)O)C(C)C)C(C)C)[C@@H](C)O)C(=O)N[C@@H](C)C(=O)N[C@@H](CO)C(=O)NCC(=O)N[C@@H](CC(C)C)C(=O)N[C@@H](CC(=O)O)C(=O)N[C@@H](CCCCN)C(=O)N[C@@H](CC(=O)O)C(=O)N[C@@H](Cc1ccc(O)cc1)C(=O)N[C@@H](CC(C)C)C(=O)N[C@@H](CCCCN)C(=O)N1CCC[C@H]1C(=O)N[C@@H](CC(=O)O)C(=O)N[C@@H](CC(=O)O)C(=O)O,,"human patients, serum","intravenous infusion, 2 mg/kg",,distribution half-life,0.84 min
COCC(=O)NCCSc1c(-c2ccc(Br)cc2)[nH]c2ccccc12,,rat,,,Vd,1.6 L/kg
